Assay results from different studies.
A part holds a random share of what one study measured. Changes are numbered by the printed parent chain.

Set 1
Target: RING finger protein unkempt homolog, zinc fingers 1-6, GST-SBP tag (UNK, Homo sapiens, UniProt Q9C0B0, residues 30-357)
Technique: RNA Bind-n-Seq
Molecule type: RNA
Medium: in vitro
Concentration: not given
Notes: RNA with constant flanks, human-mouse chimeric sites, ends assumed
Relative to: input RNA pool
Direction: higher = stronger binding
Shared flanks, not repeated: GGGAGUUCUACAGUCCGACGAUC … CAACAGAGGAUUGAGCAUCA
Construct (chain): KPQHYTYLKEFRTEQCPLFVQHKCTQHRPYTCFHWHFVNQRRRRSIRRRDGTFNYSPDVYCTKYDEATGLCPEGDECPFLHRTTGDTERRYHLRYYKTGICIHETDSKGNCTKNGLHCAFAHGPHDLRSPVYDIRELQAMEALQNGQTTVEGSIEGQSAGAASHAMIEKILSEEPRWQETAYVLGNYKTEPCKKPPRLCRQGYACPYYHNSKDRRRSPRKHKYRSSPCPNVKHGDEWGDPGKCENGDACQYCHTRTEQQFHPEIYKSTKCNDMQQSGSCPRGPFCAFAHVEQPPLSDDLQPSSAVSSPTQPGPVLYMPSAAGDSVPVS
| Sequence | bound/input enrichment |
| --- | --- |
| GCACUUCUCAAAUACUGGCCAAAGACUCACAGUCCAAAAGAAGUAAUGUUCUUAAACGAAUUAGAAGAAAUUUUAGAUGUAAUUGAACCAUCAGAGUUUGUGAAGAUCAUGGAACCCCUU | 1.9 ratio |
| ACAGUUAUAUUGUUGAGUUUCAUUUUCAUAUAUUCUUGUAGUGUCUGCUUGCCUGUGACUUCUGGUAAAAUAAGACUAGCCUUUGAAUUAGCAUGCUCAUGGUAUUUAACAUUUUCUAAA | 18.1 ratio |
| GCCACCAGAUCCCAGAAACAUGACCCUUGCAGCCUAUAAAGAGAAGAUGAAGGAGCUCCCGCUGGUGUCUCUGUUCUGCUCCUGCUUCCUGGCCGAUCCCCUGAAUAAGUCGUCCUACAA | 0.317 ratio |
| GAGUCGAGCAAACUUGAAACAAUUCGUUAUCUUGCAGAGCUUCGGUGCACUUGCUUGGCGAUAGCAUUGGGGUUUUAUAGGUUCUGGAAGGAGAACUUUAAUGCUCACUGCCGCUGCUGC | 0.254 ratio |
| AGAUUCCCCCUCCUGAGACCUCCUCCGAAGUUGGAGUCUCUUACAGAUGCCUCAUCCCCUGUUAGCGUUUUAGUUUGGACCACACAACCUUGGACAAUUCCCGCCAACCAGGCAAUUUGC | 3.48 ratio |
| CAACAGAGUCUAGGAUGGGUUCAUUACAUGAUUCAUGAGCCAGAACCGCAUAUUCUUCUCUUUAGACGACCUCUUCCAAAAGAUCAACAAAAAUGAAGUGCAGCUGGGGAUCGUCAAUCU | 0.309 ratio |
| UAAGUCCUGUGCCAGCAAUUUAUCCCAAAAGUUUUAAAUUCUGGACCAAUAGUGUUUGUUUCCUGAUUAUUGUAUCCAAUACUUUGCCUAGUAUGUAACUCACUCUUACUGAUAAUAAAA | 4.06 ratio |
| CUGAGGAUACCACUGAAGAGACCUUAAAAGAAUCAUUUUGACGGCUCCGUUCGGGCAGAAUAGUCACUGAUCGGGAAACUGGUUCUUCCAAAGGGUUUGGUUUUGUAGACUUUAAUAGUG | 0.799 ratio |
| AUAAAGGCUAUGUUGAGUGGUCCAGGUCAGUUUGCUGAGAACGAAACCAACGAGGUCAAUUUUAGAGAGAUACCUUCACAUGUGCUAUCAAAAGUGUGCAUGUAUUUUACCUACAAGGUC | 0.0879 ratio |
| UGUGAACUGUCUCUUGAGAUCUAAAAAAAACAUGAUUUUUCCUGGCACAUAUUUCAAAGCAAAGACUUUGUUGCCUGCUGCUUAUUGUCUAAUUUACAGGGAUAUUUAAUUUUGUCAGGU | 0.135 ratio |
| GGAAGUACAAUGAUGGAGAUUGAUGGUGACAAAGGCAAACAAGGCGGUCCCACCUACUACAUAGACACCAAUGCCCUCCGCGUGCCCAGGGAGAACAUGGAGGCCAUCUCACCACUCAAG | 0.234 ratio |

Set 2
Target: ABI1, truncated, D143A, DHFR fusion (Arabidopsis thaliana)
Technique: DHFR PCA, deep sequencing
Medium: yeast
Notes: methotrexate growth selection, single substitutions
With: (+)-ABA 200 µM
Relative to: wild-type fitted maximum
Direction: higher = stronger binding
Starting sequence: PYL1, truncated, DHFR fusion (Arabidopsis thaliana); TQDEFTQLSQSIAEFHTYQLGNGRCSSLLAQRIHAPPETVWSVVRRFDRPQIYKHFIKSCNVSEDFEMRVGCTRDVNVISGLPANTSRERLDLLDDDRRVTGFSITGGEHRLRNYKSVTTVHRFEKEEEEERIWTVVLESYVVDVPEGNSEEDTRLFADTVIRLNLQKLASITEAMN; partner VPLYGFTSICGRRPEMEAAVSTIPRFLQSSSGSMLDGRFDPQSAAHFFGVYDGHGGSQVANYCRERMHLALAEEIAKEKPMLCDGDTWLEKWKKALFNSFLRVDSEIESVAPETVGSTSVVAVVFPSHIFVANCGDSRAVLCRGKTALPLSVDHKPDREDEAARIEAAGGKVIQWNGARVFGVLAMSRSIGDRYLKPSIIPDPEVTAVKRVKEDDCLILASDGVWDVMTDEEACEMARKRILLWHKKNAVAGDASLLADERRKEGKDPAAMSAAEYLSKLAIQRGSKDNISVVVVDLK
| Change | relative binding score |
| --- | --- |
| S9D | 100% |
| V143P | -7.1% |
| V142F | 70.8% |
| L166F | 57.7% |
| S140D | 1.09% |
| D159F | 6.05% |
| T73I | 108% |
| V40I | 78.1% |
| D92S | 64.7% |
| E128Y | 98.1% |
| V161Y | 63.6% |
| T17P | 42.8% |
| H55S | 108% |
| K126E | 109% |
| E131M | 108% |
| R46M | 84.9% |
| E174L | 74.4% |
| T106G | 38.3% |

Set 3
Target: Histone acetyltransferase KAT6A, winged helix 2, GST fusion (KAT6A, Homo sapiens, UniProt Q92794, residues 85-181)
Technique: protein binding microarray
Molecule type: double-stranded DNA, one strand shown
Medium: in vitro
Concentration: not given
Notes: 8-mer, flanks averaged, mean of 2 arrays, mostly near background
Relative to: not given
Direction: higher = stronger binding
Target sequence (chain): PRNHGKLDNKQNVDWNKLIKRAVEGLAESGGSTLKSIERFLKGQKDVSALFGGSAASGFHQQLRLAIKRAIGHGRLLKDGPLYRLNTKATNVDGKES
| Sequence | E-score |
| --- | --- |
| GGACGTGA | -0.195 |
| AGAAACGG | 0.199 |
| CTTTGACC | 0.0464 |
| CTCGAGGC | 0.151 |
| GAACACAA | -0.0611 |
| AAAGGACG | -0.0855 |
| TGTCCACA | 0.00999 |
| CACGAAAC | -0.0515 |
| GTAGGAAA | -0.00592 |
| CGACGCAG | 0.144 |
| TACTTTGA | 0.0804 |
| AGGTCCGC | 0.0861 |
| GTCTCTGA | 0.0216 |
| AGAGACCA | 0.0274 |
| CGATCAAC | -0.103 |
| ACCAGGTA | -0.094 |
| AATGGTGG | -0.0693 |
| CACCACAC | -0.0413 |

Set 4
Target: CCND1, cyclin fold, Cln2 fusion (human)
Technique: yeast growth competition, sequencing
Medium: yeast
Notes: weak parent motif
Relative to: not given
Direction: higher = stronger binding
Starting sequence: BRCA2 docking peptide (human); PSIKRNLLNEFDR
| Change | normalised enrichment score |
| --- | --- |
| N6C | 0.204 |
| L7N | -0.989 |
| S2G | 0.136 |
| P1R | 0.735 |
| D12M | 0.751 |
| N6D | -0.00244 |
| S2N | 0.22 |
| L8G | -0.725 |
| F11A | 0.711 |
| K4E | 0.315 |
| K4T | -0.0384 |
| R13D | 1.19 |
| I3G | 0.549 |
| L7P | -0.392 |
| S2M | 0.484 |
| P1W | 1.15 |

Set 5
Target: RNA binding protein fox-1 homolog 2, RRM domain, GST-SBP tag (RBFOX2, Homo sapiens, UniProt O43251-10, residues 100-194)
Technique: RNA Bind-n-Seq
Molecule type: RNA
Medium: in vitro
Concentration: 365 nM
Notes: natural RNA segment, single round, ends assumed
Relative to: no-protein control
Direction: higher = stronger binding
Shared flanks, not repeated: GGGAGUUCUACAGUCCGACGAUC … UGGAAUUCUCGGGUGCCAA
Construct (chain): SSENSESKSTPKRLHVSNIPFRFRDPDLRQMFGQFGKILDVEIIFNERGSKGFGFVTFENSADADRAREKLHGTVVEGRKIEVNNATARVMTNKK
| Sequence | RBNS enrichment (R) |
| --- | --- |
| CACCGCCCCCACCCCACCCUCAGGCUGGAGCUCUGGGUGUGGGCAGGGACUGUGGCCCUGGAUUGCCCUCACUUGGGCCUCUGUCACACCGGGUUCCCCUCUGGAGCCAC | 0.204 |
| GAAAGGACUGACAGUGGCGGUGCCCCAUAGGAUGUCAUAUUGAGGCCCAAACUUGAUUGGAGAAUUUGCAAACUACCGUCGCUCAGCAACACCAAAAAGAGAAAGUCUGG | 1.2 |
| GGCAGAGGCUGCAGUGAGCCGAGAUGGCACCACUGCACUCCAGCUUGUUGACAGAAUGAGACCCUGUGGAAAAAAAAAAAAAAGCCCUCCCAUGCCAGAACAGAGGAUGG | 0.994 |
| AAAUGUCCCAUAGUCCUCUCACACCCUGUGUUCCAGCCUUCAGUGUUUGGACAGAGCACCACUGUCACCAAGGAGCCUGUGUGAGACACACUGCUGAGACUGCCUCUUGU | 0.463 |
| CUUUAAAUGUCCGGGAAAACUAAUUUCAGUAGCGUAGUUUGAUAGGUUAAAUGAGAUAGCAUUUUUAUAUCAGAGACACCAGAAUGUUGGUGGUCAACUACCUGUGCAAU | 0.695 |
| AACAAAAAUAGAAGACAAAAGAAAGACAUAUGAAAGGAAUUGUAAUUGGCUUAACAGAAACAGUCUGUAAAAACCUAACAGUGGUGCAAUCAUGUUGUCUGUGUUGUGUU | 0.418 |
| UGAGAGACGGCAGACUGAGCAGAAUUCCUUUUUUGAGCACGAGAGCAUUACUAGAACCAUUGUCAAAGCAGUGGCAAGGGACGGAGAGGUCCCAACAGGAGUCAGGAAGA | 1.51 |
| UAAGACAGACUGAGGGCAUUGCAUUACAAUGGCCAGAAACUACACCCAUGAGUGCAACGACCAAGGUGAAGGACAGCCAGACAGGAAAGGUGACAAAAGCCACCCUGAGU | 0.386 |
| CCUCUGAAUUGUGCUACAUCAGCGAACAAGUCGGCGCUUGAAUUGGAUUUUGAGGUUAUUUUAACCAUGGAAUUAUUUUUAUAGAAGGGGAAAAUGUAUGUGAAAGUCUC | 1.35 |
| GCUCAAAUAUUCCCCAGGGAGACUGCUGUGUGCUGCCCGCCUGCCUGCUGGCUCUCCCCCAGCCCCACAUCCCCUCUGGAAGAGAAUGUAAAAUAAACCUGGACACAAGG | 0.996 |
| AUUGGAUUAAAUGGUUUACAGGUUAUCUGAAUCUACAGAUUUAGUAUGUCUAUUAUCUGGACAUGAUUUUGCUAUGCAGUUGUGAUAAUAAAAAUUCUAAUUCCUCAGGU | 0.723 |
| AGCUUUCUGGCUUUUCUGAGGGCAAGGGCAUGGUGCCCACCCCUCAAGUGUAAGGAACUGCGUUCCGCCCCUCAGGCCCCCAUGGGGGCAGGGAUCGGCUUGGAAAUCAA | 0.237 |

Excerpt of the above (set 3):
| Sequence | E-score |
| --- | --- |
| CTCGAGGC | 0.151 |
| CGATCAAC | -0.103 |
| TACTTTGA | 0.0804 |
| CACGAAAC | -0.0515 |
| AGAAACGG | 0.199 |
| AATGGTGG | -0.0693 |
| GGACGTGA | -0.195 |
| GTCTCTGA | 0.0216 |
| AAAGGACG | -0.0855 |
| CACCACAC | -0.0413 |
